Published values gathered from unrelated publications.
Every numbered part comes from another study and shows a few of its results, in no order. Values joined by “and” are separate records of one study, mostly repeats; a detail may differ.
Chain of UniProt P29320 (whole entry, looked up): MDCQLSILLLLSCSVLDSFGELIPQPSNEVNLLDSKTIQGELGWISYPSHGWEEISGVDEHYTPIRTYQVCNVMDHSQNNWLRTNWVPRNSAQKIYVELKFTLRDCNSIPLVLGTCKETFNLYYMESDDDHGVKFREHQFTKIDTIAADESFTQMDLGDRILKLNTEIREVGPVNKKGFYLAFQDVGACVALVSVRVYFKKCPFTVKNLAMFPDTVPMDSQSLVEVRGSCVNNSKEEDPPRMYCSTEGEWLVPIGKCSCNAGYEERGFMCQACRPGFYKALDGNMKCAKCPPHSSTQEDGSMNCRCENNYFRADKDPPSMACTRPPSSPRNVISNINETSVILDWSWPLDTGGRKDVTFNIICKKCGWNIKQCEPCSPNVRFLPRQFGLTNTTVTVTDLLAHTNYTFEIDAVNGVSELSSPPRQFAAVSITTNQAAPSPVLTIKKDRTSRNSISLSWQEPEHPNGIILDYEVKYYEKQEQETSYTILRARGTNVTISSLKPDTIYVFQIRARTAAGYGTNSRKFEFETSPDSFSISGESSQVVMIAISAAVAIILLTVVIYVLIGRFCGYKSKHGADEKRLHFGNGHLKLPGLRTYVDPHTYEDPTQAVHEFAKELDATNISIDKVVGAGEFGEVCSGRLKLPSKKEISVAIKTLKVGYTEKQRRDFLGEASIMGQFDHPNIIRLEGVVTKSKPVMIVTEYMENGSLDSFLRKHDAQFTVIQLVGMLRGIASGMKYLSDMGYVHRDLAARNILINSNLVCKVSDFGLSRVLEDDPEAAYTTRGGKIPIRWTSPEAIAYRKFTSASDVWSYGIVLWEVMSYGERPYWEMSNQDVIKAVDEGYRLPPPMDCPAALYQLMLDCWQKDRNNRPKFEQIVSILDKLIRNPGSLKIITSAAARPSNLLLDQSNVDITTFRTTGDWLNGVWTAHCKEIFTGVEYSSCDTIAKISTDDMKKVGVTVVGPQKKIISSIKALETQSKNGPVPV
Chain of UniProt P06239 (whole entry, looked up): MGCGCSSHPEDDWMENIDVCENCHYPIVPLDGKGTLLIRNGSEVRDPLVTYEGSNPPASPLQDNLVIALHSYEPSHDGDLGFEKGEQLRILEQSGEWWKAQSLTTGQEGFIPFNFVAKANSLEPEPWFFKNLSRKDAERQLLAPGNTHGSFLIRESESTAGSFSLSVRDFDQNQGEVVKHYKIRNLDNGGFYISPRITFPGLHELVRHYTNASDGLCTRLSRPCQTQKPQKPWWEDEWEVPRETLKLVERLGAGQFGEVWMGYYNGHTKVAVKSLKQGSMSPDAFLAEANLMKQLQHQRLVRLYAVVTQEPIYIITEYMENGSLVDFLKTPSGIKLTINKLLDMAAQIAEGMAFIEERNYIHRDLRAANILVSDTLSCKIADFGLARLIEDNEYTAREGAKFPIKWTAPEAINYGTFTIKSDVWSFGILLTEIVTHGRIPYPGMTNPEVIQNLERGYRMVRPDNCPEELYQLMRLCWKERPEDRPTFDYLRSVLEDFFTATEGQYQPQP
Chain of UniProt P36897 (whole entry, looked up): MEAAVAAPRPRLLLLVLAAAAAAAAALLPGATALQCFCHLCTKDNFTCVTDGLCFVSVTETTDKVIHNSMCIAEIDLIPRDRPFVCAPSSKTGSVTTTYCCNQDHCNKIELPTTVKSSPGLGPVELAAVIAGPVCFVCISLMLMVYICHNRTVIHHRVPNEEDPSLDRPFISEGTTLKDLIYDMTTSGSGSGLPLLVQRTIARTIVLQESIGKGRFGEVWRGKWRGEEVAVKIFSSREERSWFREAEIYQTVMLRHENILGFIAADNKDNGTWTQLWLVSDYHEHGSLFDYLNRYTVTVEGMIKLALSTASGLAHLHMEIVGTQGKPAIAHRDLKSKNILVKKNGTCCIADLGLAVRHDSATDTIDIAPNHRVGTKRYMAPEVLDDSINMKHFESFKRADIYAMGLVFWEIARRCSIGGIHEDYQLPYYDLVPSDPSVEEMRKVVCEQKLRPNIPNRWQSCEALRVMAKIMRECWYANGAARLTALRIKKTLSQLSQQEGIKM
Chain of UniProt Q13705 (whole entry, looked up): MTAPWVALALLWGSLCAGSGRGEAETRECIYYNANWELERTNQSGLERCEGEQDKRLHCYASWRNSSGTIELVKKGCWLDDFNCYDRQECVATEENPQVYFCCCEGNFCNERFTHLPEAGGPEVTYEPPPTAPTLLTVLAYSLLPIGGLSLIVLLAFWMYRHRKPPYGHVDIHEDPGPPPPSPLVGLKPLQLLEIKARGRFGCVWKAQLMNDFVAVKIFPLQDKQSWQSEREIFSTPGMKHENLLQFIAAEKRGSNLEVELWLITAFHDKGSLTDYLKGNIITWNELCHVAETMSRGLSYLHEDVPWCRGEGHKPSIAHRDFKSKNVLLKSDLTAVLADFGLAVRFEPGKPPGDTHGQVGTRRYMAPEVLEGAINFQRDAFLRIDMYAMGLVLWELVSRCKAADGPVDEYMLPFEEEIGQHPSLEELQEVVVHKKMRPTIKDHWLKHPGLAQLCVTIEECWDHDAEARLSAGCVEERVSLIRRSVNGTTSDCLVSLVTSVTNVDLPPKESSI
Chain of UniProt Q8IYT8 (whole entry, looked up): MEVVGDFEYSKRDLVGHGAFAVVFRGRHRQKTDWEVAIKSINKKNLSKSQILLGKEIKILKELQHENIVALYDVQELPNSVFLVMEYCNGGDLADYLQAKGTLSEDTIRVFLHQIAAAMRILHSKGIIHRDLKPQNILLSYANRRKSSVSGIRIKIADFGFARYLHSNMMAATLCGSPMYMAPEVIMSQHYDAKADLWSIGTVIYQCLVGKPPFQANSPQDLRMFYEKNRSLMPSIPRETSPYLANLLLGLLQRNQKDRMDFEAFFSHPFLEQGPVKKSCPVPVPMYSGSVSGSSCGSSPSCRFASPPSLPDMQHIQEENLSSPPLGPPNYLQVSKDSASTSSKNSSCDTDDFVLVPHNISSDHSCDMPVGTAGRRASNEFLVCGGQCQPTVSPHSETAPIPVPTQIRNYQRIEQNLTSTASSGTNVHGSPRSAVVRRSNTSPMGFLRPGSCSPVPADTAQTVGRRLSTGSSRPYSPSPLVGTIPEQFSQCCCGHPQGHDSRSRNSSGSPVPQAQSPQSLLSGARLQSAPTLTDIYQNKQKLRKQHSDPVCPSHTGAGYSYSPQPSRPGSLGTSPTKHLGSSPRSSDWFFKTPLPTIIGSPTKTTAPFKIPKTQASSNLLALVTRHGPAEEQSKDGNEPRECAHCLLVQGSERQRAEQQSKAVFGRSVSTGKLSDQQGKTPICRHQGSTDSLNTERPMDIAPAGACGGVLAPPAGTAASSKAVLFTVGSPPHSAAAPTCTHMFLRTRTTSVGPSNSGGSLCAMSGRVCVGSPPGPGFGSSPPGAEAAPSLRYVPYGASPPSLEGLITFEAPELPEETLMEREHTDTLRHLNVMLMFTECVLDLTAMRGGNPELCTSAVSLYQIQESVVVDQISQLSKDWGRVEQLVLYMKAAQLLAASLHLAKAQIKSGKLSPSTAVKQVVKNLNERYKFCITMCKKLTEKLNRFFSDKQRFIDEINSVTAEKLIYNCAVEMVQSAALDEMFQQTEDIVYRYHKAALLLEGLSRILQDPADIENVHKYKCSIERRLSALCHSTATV
Chain of UniProt Q9Y2K2 (whole entry, looked up): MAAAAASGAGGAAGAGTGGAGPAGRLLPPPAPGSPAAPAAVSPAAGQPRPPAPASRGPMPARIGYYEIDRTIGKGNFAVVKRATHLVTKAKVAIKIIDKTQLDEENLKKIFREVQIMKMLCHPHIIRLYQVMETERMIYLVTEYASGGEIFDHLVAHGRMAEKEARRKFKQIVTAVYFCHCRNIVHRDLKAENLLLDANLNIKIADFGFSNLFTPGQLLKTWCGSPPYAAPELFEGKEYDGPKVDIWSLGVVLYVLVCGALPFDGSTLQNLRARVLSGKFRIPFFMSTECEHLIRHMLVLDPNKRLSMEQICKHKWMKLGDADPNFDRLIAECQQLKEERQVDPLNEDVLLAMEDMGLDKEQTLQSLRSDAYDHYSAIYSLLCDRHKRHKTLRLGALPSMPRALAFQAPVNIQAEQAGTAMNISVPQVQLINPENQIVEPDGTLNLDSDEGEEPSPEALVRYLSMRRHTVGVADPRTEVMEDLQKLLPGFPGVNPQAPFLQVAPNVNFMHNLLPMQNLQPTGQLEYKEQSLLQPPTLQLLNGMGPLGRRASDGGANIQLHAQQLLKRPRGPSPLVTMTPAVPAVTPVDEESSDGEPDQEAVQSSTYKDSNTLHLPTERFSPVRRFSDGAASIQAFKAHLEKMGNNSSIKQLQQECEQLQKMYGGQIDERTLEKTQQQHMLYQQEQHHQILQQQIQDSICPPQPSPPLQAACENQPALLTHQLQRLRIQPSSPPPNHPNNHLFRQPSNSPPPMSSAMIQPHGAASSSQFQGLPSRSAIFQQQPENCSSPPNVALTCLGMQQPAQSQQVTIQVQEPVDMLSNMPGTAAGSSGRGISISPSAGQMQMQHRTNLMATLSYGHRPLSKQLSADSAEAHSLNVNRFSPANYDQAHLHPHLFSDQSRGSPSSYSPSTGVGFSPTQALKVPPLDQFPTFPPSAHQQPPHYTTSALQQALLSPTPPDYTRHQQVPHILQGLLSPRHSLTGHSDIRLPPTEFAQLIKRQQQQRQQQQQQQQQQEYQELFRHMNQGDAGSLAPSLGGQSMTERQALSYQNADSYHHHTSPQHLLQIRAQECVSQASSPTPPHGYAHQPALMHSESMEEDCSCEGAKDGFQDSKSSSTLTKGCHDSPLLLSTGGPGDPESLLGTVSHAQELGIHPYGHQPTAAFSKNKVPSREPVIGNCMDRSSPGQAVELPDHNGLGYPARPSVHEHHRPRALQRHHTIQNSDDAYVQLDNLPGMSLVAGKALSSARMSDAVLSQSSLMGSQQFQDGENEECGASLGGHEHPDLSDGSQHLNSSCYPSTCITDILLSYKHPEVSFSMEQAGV

Block 1
SMILES: CC(C)CC(=O)N1CCc2nc(-c3ccc(Br)cc3)nc(N(C)Cc3ccccc3)c2C1
Method: competition with immobilised ligand
Tested at: 0.1 µM
It gave 86% for remaining binding (CSNK1G2 (Homo sapiens, UniProt P78368); cell-free assay).
The remaining binding was 100% (ALK (Homo sapiens, UniProt Q9UM73, C1156Y); cell-free assay).
For EPHA3 (Homo sapiens, UniProt P29320); cell-free assay: remaining binding read 100%.
It gave 100% for remaining binding (LCK (Homo sapiens, UniProt P06239); cell-free assay).
TGFBR1 (Homo sapiens, UniProt P36897); cell-free assay — remaining binding: 100%.
For CLK1 (Homo sapiens, UniProt P49759); cell-free assay: remaining binding read 100%.
BUB1 (Homo sapiens, UniProt O43683); cell-free assay — remaining binding: 78%.
PRKG2 (Homo sapiens, UniProt Q13237); cell-free assay — remaining binding: 100%.
The remaining binding was 92% (CLK4 (Homo sapiens, UniProt Q9HAZ1); cell-free assay).
The remaining binding was 98% (NEK11 (Homo sapiens, UniProt Q8NG66); cell-free assay).
It gave 100% for remaining binding (SIK3 (Homo sapiens, UniProt Q9Y2K2); cell-free assay).
It gave 100% for remaining binding (EGFR (Homo sapiens, UniProt P00533, del747-750/T751S); cell-free assay).
TLK1 (Homo sapiens, UniProt Q9UKI8); cell-free assay — remaining binding: 100%.
The remaining binding was 58% (Tyrosine-protein kinase ABL1, non-phosphorylated (ABL1, Homo sapiens, UniProt P00519); cell-free assay).
It gave 65% for remaining binding (FLT3 (Homo sapiens, UniProt P36888, R834Q); cell-free assay).
For Cyclin-dependent kinase 4, with cyclin D1 (CDK4, Homo sapiens, UniProt P11802); cell-free assay: remaining binding read 85%.
EGFR (Homo sapiens, UniProt P00533, L858R/T790M); cell-free assay — remaining binding: 100%.
The remaining binding was 100% (MAP3K1 (Homo sapiens, UniProt Q13233); cell-free assay).
It gave 97% for remaining binding (ACVR2A (Homo sapiens, UniProt P27037); cell-free assay).
It gave 100% for remaining binding (PIM3 (Homo sapiens, UniProt Q86V86); cell-free assay).
The remaining binding was 100% (ACVR2B (Homo sapiens, UniProt Q13705); cell-free assay).
CDK11A (Homo sapiens, UniProt Q9UQ88); binding — remaining binding: 100%.
KIT (Homo sapiens, UniProt P10721, V559D); cell-free assay — remaining binding: 100%.
For RIPK4 (Homo sapiens, UniProt P57078); cell-free assay: remaining binding read 100%.
WNK3 (Homo sapiens, UniProt Q9BYP7); cell-free assay — remaining binding: 100%.

Block 2
Compound: COc1cc2ncnc(N3CCN(C(=O)Nc4ccc(Oc5ccccc5)cc4)CC3)c2cc1OC
Observed: enzyme activity
Mode: inhibitor
Tested at: 0.5 µM
Reference: control
For JAK3 (Homo sapiens, UniProt P52333): remaining activity read 107%.
LCK (Homo sapiens, UniProt P06239) — remaining activity: 92.3%.
It gave 102% for remaining activity (ULK2 (Homo sapiens, UniProt Q8IYT8)).
It gave 90.3% for remaining activity (MST1R (Homo sapiens, UniProt Q04912)).
FRK (Homo sapiens, UniProt P42685) — remaining activity: 90.2%.
It gave 95.7% for remaining activity (GRK7 (Homo sapiens, UniProt Q8WTQ7)).
For FGFR3 (Homo sapiens, UniProt P22607): remaining activity read 99.9%.
For TEK (Homo sapiens, UniProt Q02763): remaining activity read 92.6%.
RPS6KA2 (Homo sapiens, UniProt Q15349) — remaining activity: 86.1%.
For GSK3B (Homo sapiens, UniProt P49841): remaining activity read 99%.
For ULK3 (Homo sapiens, UniProt Q6PHR2): remaining activity read 100%.
The remaining activity was 93.7% (EPHA3 (Homo sapiens, UniProt P29320)).
MAPK3 (Homo sapiens, UniProt P27361) — remaining activity: 102%.
It gave 99.3% for remaining activity (MAP2K2 (Homo sapiens, UniProt P36507)).

Block 3
Cell line: mouse MPNST tumor cells
Method: high-content immunofluorescence imaging
Measured: nuclear SOX9
Tested at: 10 µM
Time: 12 h
Notes: mean of 2 replicates
Reference: DMSO control
Reading: higher = more nuclear SOX9
CN(C)C(=O)COC(=O)Cc1ccc(OC(=O)c2ccc(NC(=N)N)cc2)cc1 — result for “nuclear SOX9 intensity”: 99 % of DMSO.
CC1=C(C)C(=O)C(C(C)(C)CC(=O)N(CCCCSC[C@H]2O[C@@H](n3cnc4c(N)ncnc43)[C@H](O)[C@@H]2O)Cc2cccc(-c3ccc(Cl)cc3)c2)=C(C)C1=O — result for “nuclear SOX9 intensity”: 185 % of DMSO.
For CNCC[C@@H](Oc1ccccc1C)c1ccccc1, “nuclear SOX9 intensity” read 105 % of DMSO.
For CCCCNc1cc(C(=O)O)cc(S(N)(=O)=O)c1Oc1ccccc1, “nuclear SOX9 intensity” read 99.5 % of DMSO and 110 % of DMSO and 108 % of DMSO.

Block 4
Species: mouse
Medium: microsomes or S9
Tested at: 2 µM
Time: 0.5 h
The remaining compound of CC(C)(C)OC(=O)N1CCC(c2n[nH]c3nc(S(C)(=O)=O)ncc23)CC1 is reported as 23.6%.
The remaining compound of COc1cc2c(cc1OC)-c1cc(-c3cc(C#N)n(C)c3C)c(C#N)c(=N)n1CC2 is reported as 78.5%.
CC(=O)c1ccc(N2CCOCC2)c(-c2cccc3c2OCC3)c1 gave a remaining compound of 1.09%.
CN(C(=O)CN(c1ccc(Cl)c(Cl)c1)S(C)(=O)=O)C(CN1CCCC1)c1ccc(-c2ccnc(Cl)c2)cc1 (stereo not drawn) has a remaining compound of 9.01%.
O=S1(=O)N=C(N2CCN(c3ccccc3)CC2)c2ccccc21 gave a remaining compound of < 1%.
COc1cc(=O)[nH]cc1C(=O)N1CCCC1c1ccnn1C (stereo not drawn) gave a remaining compound of 82.2%.
With COC1(c2nc(-c3ccc(Cl)nn3)cs2)CCOCC1 the remaining compound was 32.7%.
For COc1cc(OC)c(OC)cc1/C=N/N=C1\NC(=O)C(CC(=O)O)S1 (stereo not drawn), the remaining compound was 50%.
For CC(=O)c1c(NC2CCCc3ccccc32)[nH]c2c(C)cc(Cl)cc2c1=O (stereo not drawn), the remaining compound was 0.358%.
With CCCC1CCc2c(sc(NC(=O)c3ccccc3)c2C(=O)O)C1 (stereo not drawn) the remaining compound was 21%.
CCn1cc(CN(C/C=C/c2ccco2)CC(C)C)cn1 gave a remaining compound of 6.69%.

Some of these lines once more (block 4):
The remaining compound of COc1cc2c(cc1OC)-c1cc(-c3cc(C#N)n(C)c3C)c(C#N)c(=N)n1CC2 is reported as 78.5%.
For CC(=O)c1c(NC2CCCc3ccccc32)[nH]c2c(C)cc(Cl)cc2c1=O (stereo not drawn), the remaining compound was 0.358%.
CCn1cc(CN(C/C=C/c2ccco2)CC(C)C)cn1 gave a remaining compound of 6.69%.
CC(=O)c1ccc(N2CCOCC2)c(-c2cccc3c2OCC3)c1 gave a remaining compound of 1.09%.
CN(C(=O)CN(c1ccc(Cl)c(Cl)c1)S(C)(=O)=O)C(CN1CCCC1)c1ccc(-c2ccnc(Cl)c2)cc1 (stereo not drawn) has a remaining compound of 9.01%.
O=S1(=O)N=C(N2CCN(c3ccccc3)CC2)c2ccccc21 gave a remaining compound of < 1%.
COc1cc(=O)[nH]cc1C(=O)N1CCCC1c1ccnn1C (stereo not drawn) gave a remaining compound of 82.2%.
